{"data": "Measurements of several laboratories", "note": "A part holds a random share of what one study measured. Substitutions count along the parent as printed."}
{"data": "Study 1", "target": "RING finger protein unkempt homolog, zinc fingers 1-6, SBP tag (UNK, Homo sapiens, UniProt Q9C0B0, residues 30-357)", "method": "RNA Bind-n-Seq", "form": "RNA", "matrix": "in vitro", "concentration": "100 nM", "notes": "RNA with constant flanks, vertebrate orthologous sites, ends assumed", "baseline": "input RNA pool", "direction": "higher = stronger binding", "all sequences stand within": "GGGAGUUCUACAGUCCGACGAUC … CAACAGAGGAUUGAGCAUCA", "UniProt Q9C0B0, sequence (30-357, looked up)": "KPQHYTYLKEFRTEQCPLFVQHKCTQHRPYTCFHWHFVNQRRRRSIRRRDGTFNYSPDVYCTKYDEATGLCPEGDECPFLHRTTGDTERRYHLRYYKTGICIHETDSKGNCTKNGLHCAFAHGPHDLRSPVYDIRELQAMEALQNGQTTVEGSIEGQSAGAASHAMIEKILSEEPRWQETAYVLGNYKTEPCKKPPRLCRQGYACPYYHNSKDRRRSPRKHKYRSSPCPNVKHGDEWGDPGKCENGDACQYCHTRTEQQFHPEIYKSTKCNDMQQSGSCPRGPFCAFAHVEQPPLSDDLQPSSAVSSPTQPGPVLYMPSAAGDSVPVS"}
{"Oligonucleotide": "CCCCGUUUUUAAAUGCUCUUUUGAUGCUUCCGGCAGCGCCAUUUGUACAGUUUUUCUCUAAAAACAAAAAUGUUGAUUCGAAUUUCUUGUAUUUAAGUUUAAAUUGUUACAACAUUUUAG", "bound/input enrichment": "0.359 ratio"}
{"Oligonucleotide": "UCCCAGCACCUUGGUGAAAAGUGUGGAUUGGUUGCUUGUAUUUUCUUUAUUCUUUUUAAUUAGUUUUAUUAUGUAUGCUACUGUUCGGACUGAAAGUAUUCGAUGGCUCAUUCCAGGACA", "bound/input enrichment": "4.53 ratio"}
{"Oligonucleotide": "CCACGAUAAACAACUCAGGGCAGUAUUCUCGAUAUCCUUACAGUAAUCUAAAUCAGGGAUUAGUUAACAAUACAGGGAUGAAUCAAAAUUUAGGCCUUACGAAUAACACUCCAAUGAAUC", "bound/input enrichment": "1.19 ratio"}
{"Oligonucleotide": "CUCUCUUAGCGAUAGUAUUCCAUCUGUAGCAGAUUCUCACUCGAGUCAUUUUUCUGAGUUUAGUUGCUCAGAUAUGGAGAGUAUGAAAACUUCCUGUAGCCAUGGUUCCAACGACUAUCA", "bound/input enrichment": "0.41 ratio"}
{"Oligonucleotide": "CAGGGCUGGCCCCAAUCCCACCUCUGUUCAUUCUGUAAACUACAGCCUGUAAAUAACACUUAGCAUUCCUAUUGUAACAAAAUUAAUUUUUAUGAAAUAAAUUAUAUUUCCUAGUCUAAU", "bound/input enrichment": "0.875 ratio"}
{"Oligonucleotide": "AUUUAGAAUCUUAAUAAAUUGCUCCAAGGUUCCUGAAGUCAUUUCUGUAGGAUCGGACCAUAGGAUGGUGACGUCUUUUUUUUUAAUUUGUGUACUGUUUCCAAAGUUAUAUUUAAAGAG", "bound/input enrichment": "2.29 ratio"}
{"Oligonucleotide": "GAGGGUCUGCUGACCACUCACUGUUAUGUCCAGAUAUCUGUAAACCCUUUUUGUUCUUAGUCUUUUUCUUGUAUAAUGGAUGUUCUCUAAAAUUGUUAAUGUAUCACAGGGCUGAUGUUU", "bound/input enrichment": "1.58 ratio"}
{"Oligonucleotide": "UUACAGUCAUUGAUGGACUCUAUUUUUUUAUUAUUACUUGGACCUUGGUCGUUUUUAUACUAGCAAAAUGUCUUGUUUUAAUUUGUGUUUUUUGGGGGAGGGAGUGAAACUUGCUGAUUC", "bound/input enrichment": "2.66 ratio"}
{"data": "Study 2", "target": "ABI1, truncated, D143A, DHFR fusion (Arabidopsis thaliana)", "method": "DHFR PCA, deep sequencing", "matrix": "yeast", "notes": "methotrexate growth selection, single substitutions", "with": "(+)-ABA 4.8 µM", "baseline": "wild-type fitted maximum", "direction": "higher = stronger binding", "starting sequence": "PYL1, truncated, DHFR fusion (Arabidopsis thaliana); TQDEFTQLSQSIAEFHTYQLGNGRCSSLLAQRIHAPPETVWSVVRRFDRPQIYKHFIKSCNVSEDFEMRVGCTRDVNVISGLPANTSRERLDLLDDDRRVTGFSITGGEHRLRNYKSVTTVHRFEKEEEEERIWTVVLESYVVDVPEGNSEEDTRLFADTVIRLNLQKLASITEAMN"}
{"Change": "A175E", "relative binding score [%]": 73.5}
{"Change": "L28H", "relative binding score [%]": -5.79}
{"Change": "I172T", "relative binding score [%]": 34.4}
{"Change": "H122S", "relative binding score [%]": 5.24}
{"Change": "R74T", "relative binding score [%]": -6.29}
{"Change": "R132Q", "relative binding score [%]": 92.4}
{"Change": "F103N", "relative binding score [%]": -13.6}
{"Change": "D153P", "relative binding score [%]": -5.62}
{"Change": "D159R", "relative binding score [%]": -7.46}
{"Change": "A170Q", "relative binding score [%]": 67.7}
{"Change": "E131V", "relative binding score [%]": 69.4}
{"Change": "N22W", "relative binding score [%]": 55.5}
{"Change": "K126G", "relative binding score [%]": 93.7}
{"Change": "R49S", "relative binding score [%]": 63.8}
{"Change": "F66P", "relative binding score [%]": 22.1}
{"Change": "E4I", "relative binding score [%]": 79.5}
{"data": "Study 3", "target": "CCND1, cyclin fold, Cln2 fusion (human)", "method": "yeast growth competition, sequencing", "matrix": "yeast", "notes": "weak parent motif", "baseline": "not given", "direction": "higher = stronger binding", "starting sequence": "WEE1 docking peptide (human); HKTFRKLRLFDTP; partner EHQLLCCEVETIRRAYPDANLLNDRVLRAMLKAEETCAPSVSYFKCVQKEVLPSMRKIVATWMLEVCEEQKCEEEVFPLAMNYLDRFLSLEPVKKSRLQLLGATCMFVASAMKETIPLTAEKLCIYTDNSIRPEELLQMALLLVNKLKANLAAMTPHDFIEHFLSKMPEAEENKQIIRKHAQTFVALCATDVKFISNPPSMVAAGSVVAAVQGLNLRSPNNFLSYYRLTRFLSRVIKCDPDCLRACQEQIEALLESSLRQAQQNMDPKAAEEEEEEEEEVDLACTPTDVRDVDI"}
{"Change": "L7F", "normalised enrichment score": 0.11}
{"Change": "K2Q", "normalised enrichment score": 0.173}
{"Change": "P13M", "normalised enrichment score": 0.876}
{"Change": "P13R", "normalised enrichment score": -0.451}
{"Change": "F10A", "normalised enrichment score": -0.28}
{"Change": "L9G", "normalised enrichment score": 0.307}
{"Change": "F4A", "normalised enrichment score": 0.297}
{"Change": "F10Q", "normalised enrichment score": -1.12}
{"Change": "R8K", "normalised enrichment score": 0.403}
{"Change": "R5Q", "normalised enrichment score": 0.0893}
{"Change": "F4W", "normalised enrichment score": 0.975}
{"Change": "L9H", "normalised enrichment score": -0.68}
{"Change": "K6A", "normalised enrichment score": -0.088}
{"Change": "L7I", "normalised enrichment score": 0.4}
{"Change": "T12C", "normalised enrichment score": -0.155}
{"Change": "P13Y", "normalised enrichment score": 0.0955}
{"data": "Study 4", "target": "Sal-like protein 4, full length isoform B (SALL4, Homo sapiens, UniProt Q9UJQ4-2, residues 1-616)", "method": "universal PBM", "form": "double-stranded DNA, one strand shown", "matrix": "in vitro", "concentration": "not given", "notes": "8-mer, flanks averaged, mean of replicates", "direction": "higher = stronger binding"}
{"Oligonucleotide": "GACTTCCA", "E-score": -0.114}
{"Oligonucleotide": "CACTGATC", "E-score": -0.119}
{"Oligonucleotide": "ACCACCGG", "E-score": -0.261}
{"Oligonucleotide": "CTTAGTTC", "E-score": -0.118}
{"Oligonucleotide": "ACTTACAG", "E-score": 0.0717}
{"Oligonucleotide": "CCTCGCTC", "E-score": -0.0157}
{"Oligonucleotide": "CCATGACG", "E-score": -0.133}
{"Oligonucleotide": "GGCCTGTA", "E-score": -0.237}
{"Oligonucleotide": "AATGCCCA", "E-score": -0.117}
{"Oligonucleotide": "GCCTACAC", "E-score": -0.0856}
{"Oligonucleotide": "CCCCGTCC", "E-score": -0.234}
{"Oligonucleotide": "CGCGGGGA", "E-score": -0.376}
{"Oligonucleotide": "TAGAAGCA", "E-score": 0.0466}
{"Oligonucleotide": "ACGAAAGA", "E-score": 0.121}
{"Oligonucleotide": "CGTTACCC", "E-score": -0.172}
{"Oligonucleotide": "CACATCAC", "E-score": -0.0172}
{"Oligonucleotide": "CAGAGACA", "E-score": -0.151}
{"Oligonucleotide": "GCATGCGA", "E-score": 0.0784}
{"Oligonucleotide": "GGAGTTCA", "E-score": -0.135}
{"Oligonucleotide": "GTCGGGTA", "E-score": -0.17}
{"Oligonucleotide": "ACGGTGCG", "E-score": -0.206}
{"Oligonucleotide": "AACTCTGC", "E-score": -0.233}
{"Oligonucleotide": "ACTAAGGG", "E-score": -0.0963}
{"Oligonucleotide": "CGAACGTC", "E-score": -0.158}
{"Oligonucleotide": "CGCCCCTA", "E-score": -0.257}
{"data": "Study 5", "target": "DDIT3, bZIP domain (human)", "method": "DHFR protein complementation", "matrix": "yeast", "notes": "single substitutions, most at no-binding floor", "baseline": "wild-type JUN-FOS pair", "direction": "higher = stronger binding", "starting sequence": "JUN, bZIP domain (human); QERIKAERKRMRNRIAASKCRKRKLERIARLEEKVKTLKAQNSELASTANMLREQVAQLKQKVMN; partner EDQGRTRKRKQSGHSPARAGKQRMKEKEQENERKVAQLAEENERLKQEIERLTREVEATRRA"}
{"Change": "L38F", "binding fitness": "-0.602 natural log"}
{"Change": "E33N", "binding fitness": "-0.145 natural log"}
{"Change": "A29F", "binding fitness": "-0.119 natural log"}
{"Change": "S43I", "binding fitness": "0.109 natural log"}
{"Change": "K34C", "binding fitness": "-0.041 natural log"}
{"Change": "Q41A", "binding fitness": "-0.0375 natural log"}
{"Change": "V56M", "binding fitness": "0.0552 natural log"}
{"Change": "E33V", "binding fitness": "-0.296 natural log"}
{"Change": "S43G", "binding fitness": "-0.00573 natural log"}
{"Change": "E54L", "binding fitness": "-0.15 natural log"}
{"Change": "A46H", "binding fitness": "0.0579 natural log"}
{"Change": "E32R", "binding fitness": "-0.182 natural log"}
{"Change": "A46L", "binding fitness": "0.0804 natural log"}
{"Change": "S47Q", "binding fitness": "0.142 natural log"}
{"Change": "E32K", "binding fitness": "-0.181 natural log"}
{"Change": "R30H", "binding fitness": "0.0752 natural log"}
{"Change": "I28M", "binding fitness": "0.0466 natural log"}
{"Change": "S43R", "binding fitness": "0.159 natural log"}
{"Change": "E32N", "binding fitness": "-0.383 natural log"}
{"Change": "A49K", "binding fitness": "-0.425 natural log"}
{"Change": "V35C", "binding fitness": "-0.0524 natural log"}
{"Change": "A40K", "binding fitness": "0.165 natural log"}
{"note": "For quick reference, copied from above (study 4):"}
{"Oligonucleotide": "AATGCCCA", "E-score": -0.117}
{"Oligonucleotide": "GCCTACAC", "E-score": -0.0856}
{"Oligonucleotide": "CCCCGTCC", "E-score": -0.234}
{"Oligonucleotide": "CGCGGGGA", "E-score": -0.376}
{"Oligonucleotide": "TAGAAGCA", "E-score": 0.0466}
{"Oligonucleotide": "ACGAAAGA", "E-score": 0.121}
{"Oligonucleotide": "CGTTACCC", "E-score": -0.172}
{"Oligonucleotide": "CACATCAC", "E-score": -0.0172}
{"Oligonucleotide": "CAGAGACA", "E-score": -0.151}
{"Oligonucleotide": "GCATGCGA", "E-score": 0.0784}
{"Oligonucleotide": "GGAGTTCA", "E-score": -0.135}
{"Oligonucleotide": "GTCGGGTA", "E-score": -0.17}
